Results pooled from the literature.
Protocols differ between the studies behind these lines. Several values in a cell are separate wells, animals, samples, runs or records. ± gives the spread as reported.
UniProt P22309, sequence (whole entry, looked up): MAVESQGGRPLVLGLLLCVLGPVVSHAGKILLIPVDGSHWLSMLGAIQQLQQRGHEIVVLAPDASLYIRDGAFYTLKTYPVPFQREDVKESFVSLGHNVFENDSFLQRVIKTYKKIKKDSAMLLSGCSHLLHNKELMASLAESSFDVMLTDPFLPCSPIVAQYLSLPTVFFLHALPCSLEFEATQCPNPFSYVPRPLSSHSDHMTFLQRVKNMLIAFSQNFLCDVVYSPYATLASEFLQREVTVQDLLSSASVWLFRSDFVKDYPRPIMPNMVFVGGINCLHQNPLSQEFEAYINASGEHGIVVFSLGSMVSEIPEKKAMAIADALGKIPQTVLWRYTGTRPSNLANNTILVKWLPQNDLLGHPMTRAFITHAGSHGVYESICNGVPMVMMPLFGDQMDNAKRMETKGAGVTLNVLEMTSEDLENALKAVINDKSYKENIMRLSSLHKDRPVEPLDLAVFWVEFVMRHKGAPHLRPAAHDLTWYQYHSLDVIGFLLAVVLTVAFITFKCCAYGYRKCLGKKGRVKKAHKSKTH
UniProt P08684, sequence (whole entry, looked up): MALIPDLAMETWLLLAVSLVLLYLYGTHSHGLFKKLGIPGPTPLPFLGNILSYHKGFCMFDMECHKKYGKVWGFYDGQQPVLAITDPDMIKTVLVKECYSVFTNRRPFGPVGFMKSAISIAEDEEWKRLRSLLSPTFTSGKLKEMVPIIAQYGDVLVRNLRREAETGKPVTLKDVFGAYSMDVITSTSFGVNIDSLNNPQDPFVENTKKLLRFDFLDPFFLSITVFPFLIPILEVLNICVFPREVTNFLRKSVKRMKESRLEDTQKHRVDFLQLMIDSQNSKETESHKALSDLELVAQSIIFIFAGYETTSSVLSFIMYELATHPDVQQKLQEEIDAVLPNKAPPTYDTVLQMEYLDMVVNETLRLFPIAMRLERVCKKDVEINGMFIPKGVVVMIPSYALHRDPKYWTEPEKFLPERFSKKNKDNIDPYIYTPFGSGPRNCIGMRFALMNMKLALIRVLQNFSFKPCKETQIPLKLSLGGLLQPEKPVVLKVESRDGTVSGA
UniProt P20813, sequence (whole entry, looked up): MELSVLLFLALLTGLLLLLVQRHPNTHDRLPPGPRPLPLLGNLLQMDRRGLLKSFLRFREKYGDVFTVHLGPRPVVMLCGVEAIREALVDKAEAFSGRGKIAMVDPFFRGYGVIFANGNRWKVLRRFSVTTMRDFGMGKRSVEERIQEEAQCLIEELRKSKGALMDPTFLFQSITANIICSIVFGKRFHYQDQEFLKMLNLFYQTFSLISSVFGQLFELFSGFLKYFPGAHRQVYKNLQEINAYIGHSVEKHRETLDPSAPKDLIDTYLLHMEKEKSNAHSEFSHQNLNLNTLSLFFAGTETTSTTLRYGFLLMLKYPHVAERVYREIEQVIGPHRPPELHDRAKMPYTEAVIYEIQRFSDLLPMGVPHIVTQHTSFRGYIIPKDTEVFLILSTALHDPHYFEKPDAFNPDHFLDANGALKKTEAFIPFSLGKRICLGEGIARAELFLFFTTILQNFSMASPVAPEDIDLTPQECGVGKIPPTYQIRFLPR

| SMILES | target or system | test | system | conditions | scale | measurement | result |
| --- | --- | --- | --- | --- | --- | --- | --- |
| Cc1cc2c(c(O)c1O)C(=O)c1c(O)cc(O)cc1C2=O | HepaRG co-cultured with HK-2 | MTT | – | 133.33 µM, 48 h | baseline: untreated control | cell viability | 73.4 ± 15.4% |
| CC(C)CC(=O)OC[C@H]1O[C@@](C#N)(c2ccc3c(N)ncnn23)[C@H](O)[C@@H]1O | Cytochrome P450 2B6 (CYP2B6, Homo sapiens, UniProt P20813) | metabolic stability | recombinant enzyme | 1 µM, 30 min | – | remaining compound | 97.4 ± 8.2% |
| CC(=O)OC[C@H]1O[C@@H](Oc2cc(O)cc3cc4oc(C)cc(=O)c4c(O)c23)[C@H](O)[C@@H](O)[C@@H]1O | HepaRG co-cultured with HK-2 | MTT | – | 66.67 µM, 24 h | baseline: untreated control | cell viability | 131 ± 9.98% |
| CCC1(c2ccccc2)C(=O)NC(=O)NC1=O | pooled human hepatocyte co-culture | mRNA induction, refers to: CYP2B6 mRNA | – | 48 h | baseline: vehicle | Emax | 24.5 fold |
| Cc1ncc2n1-c1ccc(Cl)cc1C(c1ccccc1F)=NC2 | Cytochrome P450 3A4 (CYP3A4, Homo sapiens, UniProt P08684) | – | human, plasma | oral, 2 mg, day 1, alone, arithmetic mean | – | AUC(0-t) | 21.1 ng·h/mL |
| CN/C(=N\[N+](=O)[O-])NCc1cnc(Cl)s1 | – | – | soil | 0 days, nominal 0.12 | – | concentration | 0.07 mg/kg dry soil |
| O=c1ccc2ccccc2o1 | NHEK | cell count | – | concentration not given, 6 h, phospholipidosis and steatosis panel | – | chance response | 0.04% |
| COc1cc2ncnc(Nc3cccc(Cl)c3)c2cc1OC | HaCaT | – | – | 100 µM, 60 h | – | viability | 1.84% and 4.05% and 4.89% |
| [Cl-].[Cl-].[Pt+2].[Ru+2].c1ccc(-c2nc3cc4ccccc4cc3nc2-c2ccccn2)nc1.c1cnc2c(c1)ccc1cccnc12.c1cnc2c(c1)ccc1cccnc12 | Danio rerio | – | embryos | 60 µM, 48 h | – | survival rate | 80 ± 3.5% |
| CC(C)=CC1C(C(=O)OC(C#N)c2cccc(Oc3ccccc3)c2)C1(C)C (stereo not shown) | human CYP3A5 | IVIVE from expressed enzymes | human, liver, in vivo scaled | age-specific | – | enzyme contribution to CLint | 0.24% |
| CN[C@@]1(c2ccccc2Cl)CCCCC1=O | UDP-glucuronosyltransferase 1A1 (UGT1A1, Homo sapiens, UniProt P22309) | enzyme activity | – | 30 µM | – | inhibition | -3% |
| COc1ccc2c(c1OC)C(=O)c1c(cc(C)c(O)c1OC)C2=O | HK-2 co-cultured with HepaRG | MTT | – | 266.67 µM, 48 h | baseline: untreated control | cell viability | 38.4 ± 2.24% |
| CC1(C)C(/C=C(\Cl)C(F)(F)F)C1C(=O)OC(C#N)c1cccc(Oc2ccccc2)c1 (stereo not shown) | human cytosolic CES2 | IVIVE from expressed enzymes | human, liver, in vivo scaled | age-specific | – | enzyme contribution to CLint | 0.02% |
| CO[C@H]1C[C@@H]2CC[C@@H](C)[C@@](O)(O2)C(=O)C(=O)N2CCCC[C@H]2C(=O)O[C@H]([C@H](C)C[C@@H]2CC[C@@H](OC(=O)NCCOCCOCCOCCOCCOCCOCCOCCOCCC(=O)N3CCc4cc(Cn5nc(-c6ccc7oc(N)nc7c6)c6c(N)ncnc65)ccc4C3)[C@H](OC)C2)C[C@@H](O)[C@H](C)/C=C(\C)[C@@H](O)[C@@H](OC)C(=O)[C@H](C)C[C@H](C)/C=C/C=C/C=C/1C | – | – | patients with advanced solid tumours | intravenous, 10 mg weekly, grade 3 or higher | – | abdominal pain incidence | 0% |
| OC(CCN1CC=C(c2ccc(F)cc2)CC1)c1ccc(F)c2ccccc12 (stereo not shown) | Salmonella typhimurium | genotoxicity, SOS/umu test | TA1535/pSK1002 | 0.002 mg/mL, 4 h, with S9, lower range | – | induction factor | 0.9 |
| Cc1cc(C(=O)NC(C)(C)COc2cccc3c2C(N)=NS(=O)(=O)N3)cc(C)n1 | Escherichia coli | Ames test, initial | WP2 uvrA | 1.50 µg/plate | baseline: solvent control | revertant ratio | 1.1 |
| COc1cccc(-c2n[nH]c(SCc3ccccn3)n2)c1OC | Escherichia coli | Ames test, plate incorporation | WP2 uvrA | 5.0 mg/plate, without S9 | – | revertant colonies per plate | 25 |
| CN1CC[C@@H](c2c(O)cc(O)c3c(=O)cc(-c4ccc(C(F)(F)F)cc4Cl)oc23)[C@@H]1CO | – | refers to: Anemia | B-cell malignancies or AML | oral, 100 mg, continuous dosing | – | patients with adverse event | 0% |
| O=[N+]([O-])c1ccc(N2CCN(CCC(O)c3ccc(F)cc3)CC2)c(C(F)(F)F)c1 (stereo not shown) | Salmonella typhimurium | genotoxicity, SOS/umu test | TA1535/pSK1002 | 0.008 mg/mL, 4 h, without S9, lower range | – | induction factor | 0.9 |
| C[C@]1(CO)Cc2ncn(-c3ccc(C#N)c(Cl)c3)c2C(=O)O1 | – | – | healthy humans | 10 mg, fed | – | drug-related Headache incidence | 0% |
| COc1cc2c(Oc3ccc4[nH]c(C)cc4c3F)ccnc2cc1OCC1(N)CC1 | – | – | paediatric recurrent refractory sarcoma | concentration not given, whole group | – | grade 1 or 2 Nausea | 5.9% |
| [Cl-].[Cl-].[Pt+2].[Ru+2].c1ccc(-c2nccnc2-c2ccccn2)nc1.c1cnc2c(c1)ccc1cccnc12.c1cnc2c(c1)ccc1cccnc12 | Danio rerio | – | embryos | 75 µM, 48 h | – | hatching rate | 0% |
| CC(=O)N1CCC(C(=O)N2CCN3C(=O)c4cc(-c5ccccc5)ccc4NC(=O)C3C2)CC1 (stereo not shown) | Salmonella typhimurium | – | TA1537 | 15.8 µg/plate, together with: rat liver S9 | baseline: vehicle | fold increase in revertants | 1.4 |
| O=C1c2ccccc2C(=O)c2ccccc21 | HepaRG co-cultured with HK-2 | MTT | – | 266.67 µM, 24 h | baseline: untreated control | cell viability | 39.4 ± 4.3% |
| CCc1ccc(CC/C=C/c2ccc3c(c2)C(=O)CC3)cc1 | – | – | Sprague-Dawley rat, female | oral, 120 mg/kg/day, 14 days | – | Reticulocyte percentage | 2.19% |

Excerpt of the above:
| SMILES | target or system | test | system | conditions | scale | measurement | result |
| --- | --- | --- | --- | --- | --- | --- | --- |
| Cc1ncc2n1-c1ccc(Cl)cc1C(c1ccccc1F)=NC2 | Cytochrome P450 3A4 (CYP3A4, Homo sapiens, UniProt P08684) | – | human, plasma | oral, 2 mg, day 1, alone, arithmetic mean | – | AUC(0-t) | 21.1 ng·h/mL |
| Cc1cc2c(c(O)c1O)C(=O)c1c(O)cc(O)cc1C2=O | HepaRG co-cultured with HK-2 | MTT | – | 133.33 µM, 48 h | baseline: untreated control | cell viability | 73.4 ± 15.4% |
| O=C1c2ccccc2C(=O)c2ccccc21 | HepaRG co-cultured with HK-2 | MTT | – | 266.67 µM, 24 h | baseline: untreated control | cell viability | 39.4 ± 4.3% |
